Published values pooled from the literature.
Parts stem from different laboratories: compare values within a part only. Substitutions count along the parent as printed.

Series 1 — technique: protein-binding microarray; form: double-stranded DNA, one strand shown; sample: in vitro; tested at: 2540 nM top; notes: 60-bp whole probe; with: salmon DNA 0.4 mg/ml; reference: random background probes; direction: higher = stronger binding; quantity: fitted relative affinity; constant ends, left off below: GCCTAGCAC … GTCTTGATTCGCTTGACGCTGCTG
Target: Interferon regulatory factor 3, full length, phosphomimetic (IRF3, Homo sapiens, UniProt Q14653, residues 1-427, S386D/S396D/S398D/S402D/T404D/S405D)
Chain of UniProt Q14653 (whole entry, unmodified, looked up): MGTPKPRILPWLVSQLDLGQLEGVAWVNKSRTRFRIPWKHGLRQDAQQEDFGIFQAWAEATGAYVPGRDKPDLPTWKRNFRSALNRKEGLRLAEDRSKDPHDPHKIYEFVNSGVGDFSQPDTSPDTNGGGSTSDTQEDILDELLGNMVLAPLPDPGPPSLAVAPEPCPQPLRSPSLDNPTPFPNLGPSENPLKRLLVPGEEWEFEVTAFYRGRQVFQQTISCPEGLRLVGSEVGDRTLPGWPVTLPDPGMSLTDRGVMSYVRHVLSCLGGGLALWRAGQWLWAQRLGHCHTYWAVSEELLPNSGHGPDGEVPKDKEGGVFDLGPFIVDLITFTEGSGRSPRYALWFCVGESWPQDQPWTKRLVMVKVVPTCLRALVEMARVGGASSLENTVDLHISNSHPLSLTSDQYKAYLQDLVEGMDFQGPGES
TTAGTACTGAGTTTCGATTAGTGCTAG: 2.63 z-score
TCATTTTGGTCTTTCTGACTGTGCTAG: 1.7 z-score
TTAGGACAGCTACTGCTTTAGTGCTAG: -0.619 z-score
TTAGATATCGGGTGTCGATTAGTGCTA: 0.0678 z-score
TCATATTTAAGGCATCTGACTGTGCTA: 0.391 z-score
GACGATATCCGGTATCGAGACGTGCTA: 1.04 z-score
GACGGTTTCGGTCTCGGGTCGTGCTAG: 8.35 z-score
TTAGATATCGGGTATAGATTAGTGCTA: -0.1 z-score

Series 2 — Substitution: S26V; technique: DHFR PCA, deep sequencing; sample: yeast; reference: wild-type fitted maximum; direction: higher = stronger binding; quantity: relative binding score
Target: ABI1, truncated, D143A, DHFR fusion (Arabidopsis thaliana)
Notes: methotrexate growth selection, single substitutions
Starting sequence: PYL1, truncated, DHFR fusion (Arabidopsis thaliana); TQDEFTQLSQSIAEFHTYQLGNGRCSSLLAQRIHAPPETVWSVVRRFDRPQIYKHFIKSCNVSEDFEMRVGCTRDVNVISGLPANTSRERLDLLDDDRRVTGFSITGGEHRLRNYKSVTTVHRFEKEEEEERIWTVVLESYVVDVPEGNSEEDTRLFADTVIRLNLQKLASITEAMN; partner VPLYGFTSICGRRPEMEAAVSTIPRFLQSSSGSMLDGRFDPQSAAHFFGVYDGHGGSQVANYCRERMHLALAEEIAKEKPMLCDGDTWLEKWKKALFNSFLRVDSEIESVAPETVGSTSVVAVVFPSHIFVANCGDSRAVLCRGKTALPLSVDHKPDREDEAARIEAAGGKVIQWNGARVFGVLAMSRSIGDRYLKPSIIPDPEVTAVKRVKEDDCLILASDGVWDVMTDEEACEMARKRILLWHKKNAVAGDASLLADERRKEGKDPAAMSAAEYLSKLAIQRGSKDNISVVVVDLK
with: (+)-ABA 710 µM: 89.8%
with: (+)-ABA 2500 µM: 94%
with: (+)-ABA 0 µM: 2.48%
with: (+)-ABA 1.4 µM: 4%
with: (+)-ABA 58 µM: 64.1%
with: (+)-ABA 0.0091 µM: 0.61%

Further values, each from its own experiment
P1: viral docking peptide; CKVKRKLFGSENI; partner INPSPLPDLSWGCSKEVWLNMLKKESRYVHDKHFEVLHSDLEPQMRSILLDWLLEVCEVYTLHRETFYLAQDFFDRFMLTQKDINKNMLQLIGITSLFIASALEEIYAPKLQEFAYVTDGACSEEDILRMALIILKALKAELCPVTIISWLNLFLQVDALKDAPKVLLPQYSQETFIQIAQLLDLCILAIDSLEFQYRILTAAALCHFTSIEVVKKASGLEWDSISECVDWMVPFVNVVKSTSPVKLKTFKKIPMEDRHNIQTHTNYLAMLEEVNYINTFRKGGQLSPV
P1 K4A — normalised enrichment score (CCNE2, cyclin fold, Cln2 fusion (human); yeast growth competition, sequencing; yeast; strong parent motif; reference: not given, higher = stronger binding): 1.9
PhoQ, residues 284 288 289 292 302 303 SMYGEC — fold induction (PhoP, residues 12 14 15 18 19 NHFRA (Escherichia coli, UniProt P23836); Sort-seq, item: YFP reporter; E. coli; PhoQ-PhoP variant library, with: 10 µM Mg2+; reference: high Mg2+ state, higher = stronger signaling): 0.621

A few entries again (series 2):
with: (+)-ABA 0 µM: 2.48%
